Experimental data from different studies.
Every numbered part comes from another study and shows a few of its results, in no order. Positions count from the first letter of the parent shown.

Block 1
Target: Histone acetyltransferase KAT6A, winged helix 1, GST fusion (KAT6A, Homo sapiens, UniProt Q92794, residues 1-85)
Method: protein binding microarray
Form: double-stranded DNA, one strand shown
Medium: in vitro
Tested at: not given
Setting: 8-mer, flanks averaged, mean of 2 arrays, mostly near background
Baseline: not given
Direction: higher = stronger binding
Target sequence (chain): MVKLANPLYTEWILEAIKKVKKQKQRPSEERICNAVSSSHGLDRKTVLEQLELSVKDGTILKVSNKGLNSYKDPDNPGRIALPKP
| Strand | E-score |
| --- | --- |
| CGCTCCTA | 0.134 |
| AGGCCAAT | -0.234 |
| AAATACCG | 0.0947 |
| ATCCAGAG | -0.217 |
| GGCTTTCA | -0.0528 |
| TAGGGTGA | -0.28 |
| CTAGTAGC | 0.0855 |
| CGCAAATA | -0.0456 |
| ACAACCGA | -0.125 |
| CTACTCCA | -0.0905 |

Block 2
Target: CCNE2, cyclin fold, Cln2 fusion (human)
Method: yeast growth competition, sequencing
Medium: yeast
Setting: strong parent motif
Baseline: not given
Direction: higher = stronger binding
Starting sequence: CDKN1B docking peptide (human); PSACRNLFGPVDH
| Change | normalised enrichment score |
| --- | --- |
| PNACRNLFGPVDH [S2N] | 1.43 |
| PSACRNLFLPVDH [G9L] | 0.811 |
| PSACRNMFGPVDH [L7M] | 0.628 |
| PSICRNLFGPVDH [A3I] | 1.36 |
| PSARRNLFGPVDH [C4R] | 1.78 |
| PSACRNLFGNVDH [P10N] | 1.62 |
| PSACRNLFGPVGH [D12G] | 1.53 |

Block 3
Target: Centromere-binding protein 1, full length, His-tagged (CBF1, Saccharomyces cerevisiae, UniProt P17106, residues 1-351)
Sequence of UniProt P17106 (whole entry, looked up): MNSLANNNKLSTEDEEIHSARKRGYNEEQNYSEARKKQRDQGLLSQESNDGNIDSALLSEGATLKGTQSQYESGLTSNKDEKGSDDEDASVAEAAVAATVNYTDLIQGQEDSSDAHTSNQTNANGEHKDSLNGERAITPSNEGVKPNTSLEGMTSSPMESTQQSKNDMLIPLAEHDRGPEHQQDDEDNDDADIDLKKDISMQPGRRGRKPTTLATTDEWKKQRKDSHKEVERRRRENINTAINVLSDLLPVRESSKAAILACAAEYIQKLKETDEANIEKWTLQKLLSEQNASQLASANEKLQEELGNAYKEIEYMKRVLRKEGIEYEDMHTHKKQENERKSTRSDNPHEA
Method: competition protein-binding microarray
Form: double-stranded DNA, one strand shown
Medium: in vitro
Tested at: 2 µM
Setting: whole 60-bp probe, lowest competitor level
Together with: Pho4 competitor, 0.05 µM
Direction: higher = stronger binding
Constant ends, left off below: … GTCTTGATTCGCTTGACGCTGCTG
| Strand | fluorescence intensity |
| --- | --- |
| TCGACACACCCGCCGCATGTGCGACAATTTCTTCGG | 90.3 a.u. |
| TGCTAAGACCATAGGCACATGTACGCAGGCGACCAG | 110 a.u. |
| CCGCTAACAAATCCACACGTCGCACTGAAAGTGATA | 70.1 a.u. |
| CTTCTGTAAATTTGCAATGTGGGTGGACGCGCCCCG | 79.2 a.u. |
| AAATTACTAAGTTCACACGTGTTTTACCCCGTATGA | 985 a.u. |
| CTTCTGTAAATTTGTCACCACACTTGACGCGCCCCG | 81.2 a.u. |
| TGTTAGGTTTACCAGAACGTGGCCGATTTCTGCCAG | 79.3 a.u. |
| CTTCTGTAAATTTGTCACCAAACTTGACGCGCCCCG | 95.6 a.u. |
| TTACAAATGGTTCAGATCATGCAGATGCAGCACTTG | 72.4 a.u. |
| CGGAGCTGCAAGTACTACGTGCCAGCAGCATAATAA | 72.5 a.u. |
| ACAGGCAGGGGGTCCCACGATTCCTGTGCCGACATT | 68.1 a.u. |
| ATTCAATGTTCTCAGGACGTGCTAAAAGGAAACCCA | 73.5 a.u. |

Mixed results
| Substance | target | test | system | setting | scale | endpoint | result |
| --- | --- | --- | --- | --- | --- | --- | --- |
| PhoQ, residues 284 288 289 292 302 303 HSYLQF | PhoP, residues 12 14 15 18 19 LFHKL (Escherichia coli, UniProt P23836) | Sort-seq, refers to: YFP reporter | E. coli | PhoQ-PhoP variant library, together with: 10 µM Mg2+ | baseline: high Mg2+ state, higher = stronger signaling | fold induction | 6.25 |

Some of these lines once more (block 1):
| Strand | E-score |
| --- | --- |
| CGCAAATA | -0.0456 |
| GGCTTTCA | -0.0528 |
| CTAGTAGC | 0.0855 |
